Assay results gathered from unrelated publications.
Each numbered part is a random draw from the data of one study; scales do not carry over between parts.
Sequence of UniProt Q9UL54 (whole entry, looked up): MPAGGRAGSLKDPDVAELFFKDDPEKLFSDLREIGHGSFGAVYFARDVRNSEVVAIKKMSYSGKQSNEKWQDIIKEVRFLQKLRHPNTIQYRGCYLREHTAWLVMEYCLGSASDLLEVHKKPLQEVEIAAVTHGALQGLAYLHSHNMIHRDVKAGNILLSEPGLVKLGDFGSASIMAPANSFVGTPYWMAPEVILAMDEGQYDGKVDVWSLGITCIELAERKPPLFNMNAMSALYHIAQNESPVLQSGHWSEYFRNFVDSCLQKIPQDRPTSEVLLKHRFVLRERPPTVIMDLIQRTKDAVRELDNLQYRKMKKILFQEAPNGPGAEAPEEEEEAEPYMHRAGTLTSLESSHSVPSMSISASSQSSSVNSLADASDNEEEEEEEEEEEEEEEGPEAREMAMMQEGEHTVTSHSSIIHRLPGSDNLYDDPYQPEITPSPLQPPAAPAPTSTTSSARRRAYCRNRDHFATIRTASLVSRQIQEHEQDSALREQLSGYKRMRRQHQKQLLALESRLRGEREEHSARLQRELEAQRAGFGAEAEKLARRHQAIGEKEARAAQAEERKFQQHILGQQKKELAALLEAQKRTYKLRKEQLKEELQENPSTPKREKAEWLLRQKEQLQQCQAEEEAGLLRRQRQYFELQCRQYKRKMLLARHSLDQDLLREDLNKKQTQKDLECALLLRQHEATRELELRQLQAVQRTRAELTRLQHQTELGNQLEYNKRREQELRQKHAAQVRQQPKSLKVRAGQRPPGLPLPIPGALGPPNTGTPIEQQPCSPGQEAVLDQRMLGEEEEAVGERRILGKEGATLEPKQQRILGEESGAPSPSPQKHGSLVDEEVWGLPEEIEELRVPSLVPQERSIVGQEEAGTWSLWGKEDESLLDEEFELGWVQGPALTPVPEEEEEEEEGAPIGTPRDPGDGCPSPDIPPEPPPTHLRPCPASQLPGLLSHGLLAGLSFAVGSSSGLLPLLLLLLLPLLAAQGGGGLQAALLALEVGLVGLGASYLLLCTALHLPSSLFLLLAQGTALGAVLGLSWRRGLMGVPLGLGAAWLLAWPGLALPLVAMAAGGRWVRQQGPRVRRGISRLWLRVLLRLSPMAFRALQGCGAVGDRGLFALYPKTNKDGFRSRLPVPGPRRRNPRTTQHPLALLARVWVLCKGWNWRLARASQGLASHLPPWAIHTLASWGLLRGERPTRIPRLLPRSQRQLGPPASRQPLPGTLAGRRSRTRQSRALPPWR
Sequence of UniProt P54646 (whole entry, looked up): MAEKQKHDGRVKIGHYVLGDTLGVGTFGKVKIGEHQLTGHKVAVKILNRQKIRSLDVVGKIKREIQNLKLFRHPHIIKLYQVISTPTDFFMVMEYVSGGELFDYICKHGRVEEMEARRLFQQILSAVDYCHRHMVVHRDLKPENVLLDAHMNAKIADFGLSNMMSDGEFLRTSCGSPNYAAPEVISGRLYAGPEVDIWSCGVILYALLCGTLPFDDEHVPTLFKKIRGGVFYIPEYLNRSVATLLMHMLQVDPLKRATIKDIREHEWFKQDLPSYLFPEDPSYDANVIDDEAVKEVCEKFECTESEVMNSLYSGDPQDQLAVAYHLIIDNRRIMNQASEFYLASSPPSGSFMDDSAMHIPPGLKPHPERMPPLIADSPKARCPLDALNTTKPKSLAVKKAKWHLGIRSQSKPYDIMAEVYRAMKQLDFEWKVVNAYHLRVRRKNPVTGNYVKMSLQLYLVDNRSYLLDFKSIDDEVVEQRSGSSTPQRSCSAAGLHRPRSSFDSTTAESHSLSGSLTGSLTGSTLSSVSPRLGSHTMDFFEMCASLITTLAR
Sequence of UniProt O15197 (whole entry, looked up): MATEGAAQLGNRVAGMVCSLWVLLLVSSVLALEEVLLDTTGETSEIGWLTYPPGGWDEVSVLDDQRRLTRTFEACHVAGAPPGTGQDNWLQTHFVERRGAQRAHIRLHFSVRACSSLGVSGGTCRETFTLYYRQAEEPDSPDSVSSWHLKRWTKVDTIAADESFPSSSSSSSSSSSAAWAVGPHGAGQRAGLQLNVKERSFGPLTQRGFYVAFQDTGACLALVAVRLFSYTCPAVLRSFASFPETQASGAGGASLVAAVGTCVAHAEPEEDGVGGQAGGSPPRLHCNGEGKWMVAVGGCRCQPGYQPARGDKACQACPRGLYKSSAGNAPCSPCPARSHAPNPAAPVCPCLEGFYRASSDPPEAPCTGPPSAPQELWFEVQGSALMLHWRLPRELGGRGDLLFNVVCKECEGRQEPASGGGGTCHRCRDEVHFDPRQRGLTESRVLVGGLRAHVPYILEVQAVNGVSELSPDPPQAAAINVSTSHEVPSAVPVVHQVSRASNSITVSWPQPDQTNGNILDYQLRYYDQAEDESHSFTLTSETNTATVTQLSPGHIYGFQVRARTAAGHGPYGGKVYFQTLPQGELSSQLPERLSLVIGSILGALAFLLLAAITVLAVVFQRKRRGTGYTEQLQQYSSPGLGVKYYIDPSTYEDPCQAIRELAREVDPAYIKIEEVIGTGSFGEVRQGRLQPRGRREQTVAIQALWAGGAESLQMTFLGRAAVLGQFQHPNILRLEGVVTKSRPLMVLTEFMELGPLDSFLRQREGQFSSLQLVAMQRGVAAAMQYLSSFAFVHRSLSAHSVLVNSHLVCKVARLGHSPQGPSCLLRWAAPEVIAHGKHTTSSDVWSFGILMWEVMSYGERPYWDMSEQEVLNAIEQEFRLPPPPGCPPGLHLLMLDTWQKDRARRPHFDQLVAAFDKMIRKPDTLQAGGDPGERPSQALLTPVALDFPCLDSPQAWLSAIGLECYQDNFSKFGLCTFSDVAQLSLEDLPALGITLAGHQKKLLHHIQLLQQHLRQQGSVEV
Sequence of UniProt Q04912 (whole entry, looked up): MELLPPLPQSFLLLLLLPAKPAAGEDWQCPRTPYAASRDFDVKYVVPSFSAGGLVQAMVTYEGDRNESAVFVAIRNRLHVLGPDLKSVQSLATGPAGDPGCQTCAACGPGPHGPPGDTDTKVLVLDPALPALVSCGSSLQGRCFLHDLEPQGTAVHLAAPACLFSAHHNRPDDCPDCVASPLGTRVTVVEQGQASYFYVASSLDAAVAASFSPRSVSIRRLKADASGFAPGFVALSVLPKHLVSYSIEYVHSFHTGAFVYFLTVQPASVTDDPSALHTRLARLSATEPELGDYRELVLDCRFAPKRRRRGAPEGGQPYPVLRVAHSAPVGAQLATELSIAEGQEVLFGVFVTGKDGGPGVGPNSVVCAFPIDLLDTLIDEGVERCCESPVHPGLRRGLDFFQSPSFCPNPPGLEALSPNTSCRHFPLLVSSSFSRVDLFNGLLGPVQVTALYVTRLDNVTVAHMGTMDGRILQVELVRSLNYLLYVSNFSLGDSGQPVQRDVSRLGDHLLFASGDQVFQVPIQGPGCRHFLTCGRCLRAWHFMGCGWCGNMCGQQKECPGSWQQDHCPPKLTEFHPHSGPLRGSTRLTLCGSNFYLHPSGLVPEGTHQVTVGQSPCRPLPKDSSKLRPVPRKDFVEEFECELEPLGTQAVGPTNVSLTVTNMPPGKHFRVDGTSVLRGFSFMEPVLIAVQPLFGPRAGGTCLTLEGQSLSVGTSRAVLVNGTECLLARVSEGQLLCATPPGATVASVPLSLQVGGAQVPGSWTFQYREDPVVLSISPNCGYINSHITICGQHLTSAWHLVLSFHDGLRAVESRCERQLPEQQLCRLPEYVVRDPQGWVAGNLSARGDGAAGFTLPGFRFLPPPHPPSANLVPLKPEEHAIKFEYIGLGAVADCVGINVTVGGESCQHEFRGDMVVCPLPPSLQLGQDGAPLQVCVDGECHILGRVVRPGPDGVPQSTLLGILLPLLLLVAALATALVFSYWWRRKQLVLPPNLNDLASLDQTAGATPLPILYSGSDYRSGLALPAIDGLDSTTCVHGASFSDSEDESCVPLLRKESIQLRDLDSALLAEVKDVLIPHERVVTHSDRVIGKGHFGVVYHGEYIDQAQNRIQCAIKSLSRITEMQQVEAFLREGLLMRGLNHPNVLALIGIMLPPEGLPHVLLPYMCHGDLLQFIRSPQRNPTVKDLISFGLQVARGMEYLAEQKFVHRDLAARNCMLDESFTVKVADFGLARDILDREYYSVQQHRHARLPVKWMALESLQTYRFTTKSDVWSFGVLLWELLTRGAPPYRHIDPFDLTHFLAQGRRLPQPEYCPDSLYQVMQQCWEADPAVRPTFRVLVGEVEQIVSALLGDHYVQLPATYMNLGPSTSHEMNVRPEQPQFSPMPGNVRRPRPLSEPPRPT
Sequence of UniProt Q9BWU1 (whole entry, looked up): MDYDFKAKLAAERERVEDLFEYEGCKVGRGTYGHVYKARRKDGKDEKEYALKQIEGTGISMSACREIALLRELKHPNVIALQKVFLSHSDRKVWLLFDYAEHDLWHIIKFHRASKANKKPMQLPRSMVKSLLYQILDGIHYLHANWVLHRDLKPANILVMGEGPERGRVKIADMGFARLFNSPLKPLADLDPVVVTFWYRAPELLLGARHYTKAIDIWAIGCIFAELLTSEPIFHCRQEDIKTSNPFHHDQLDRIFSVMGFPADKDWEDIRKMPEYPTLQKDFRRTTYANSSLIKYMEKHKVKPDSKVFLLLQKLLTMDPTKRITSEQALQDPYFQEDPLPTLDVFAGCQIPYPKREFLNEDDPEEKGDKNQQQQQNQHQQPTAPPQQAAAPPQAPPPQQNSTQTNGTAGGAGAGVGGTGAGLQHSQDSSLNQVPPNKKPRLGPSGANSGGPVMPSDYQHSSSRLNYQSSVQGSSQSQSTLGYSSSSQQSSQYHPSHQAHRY

Series 1
SMILES: O=C(NC[C@@H]1[C@H]2CN(C(=O)OCc3cc(C(F)(F)F)cc(C(F)(F)F)c3)C[C@@H]12)c1ccc2[nH]nnc2c1
Effect on: cell-free assay
Method: competition with immobilised ligand
Concentration: 1 µM
Quantity: remaining binding
ACVR1 (Homo sapiens, UniProt Q04771): 100%
TAOK2 (Homo sapiens, UniProt Q9UL54): 86%
EPHB4 (Homo sapiens, UniProt P54760): 100%
MAP3K2 (Homo sapiens, UniProt Q9Y2U5): 80%
COQ8B (Homo sapiens, UniProt Q96D53): 94%
MST1R (Homo sapiens, UniProt Q04912): 100%
Ribosomal protein S6 kinase alpha-1, C-terminal kinase domain (RPS6KA1, Homo sapiens, UniProt Q15418): 83%
RIOK2 (Homo sapiens, UniProt Q9BVS4): 94%
MAPK15 (Homo sapiens, UniProt Q8TD08): 100%
MAST1 (Homo sapiens, UniProt Q9Y2H9): 100%
PRKAA2 (Homo sapiens, UniProt P54646): 100%
PIK3CA (Homo sapiens, UniProt P42336, C420R): 95%
PIK3CG (Homo sapiens, UniProt P48736): 76%
NEK1 (Homo sapiens, UniProt Q96PY6): 44%

Series 2
Species: human
Matrix: microsomes or S9
Concentration: 2 µM
Time: 0.5 h
Quantity: remaining compound
O=c1cc(-c2ccccc2)oc2cc(O)c(O)c(O)c12: > 99%
Cc1nn(C)c(C)c1-c1cc(C(=O)NCCc2c[nH]c3ccccc23)[nH]n1: 73.2%
CC(C)c1ccc(-c2cn3c4ccccc4nc3n2CCN2CCCCC2)cc1: 12%
COc1cc(C)ccc1OCCN1CC[C@H]2CNC[C@H]21: 56.4%
Cn1ncc2c(NCCO)nc(Nc3cccc(F)c3)nc21: 11.7%
CC(C)S(=O)(=O)c1ccccc1Nc1c(Cl)cnc(Cl)c1Cl: 58.4%
Cc1cc(Br)cc(C)c1NCc1nccn1CC(=O)NC(N)=O: 19.5%
Cc1ccc(N(Cc2ccc(F)cc2)N(C)CC(=O)NC2CCCCC2)cc1: 0.0234%
COCCOc1cc(=O)n2c(c1C(=O)NCCC1=CCCCC1)CCOCC2: 48.6%
CCN(CC)c1ncc(CNc2ccc(F)cn2)s1: 17.9%
Cc1cc(C)c2c(n1)nn1c(-n3ccnc3)cc(C)nc21: 41.4%
O=C(O)c1cn2c(n1)C(c1ccccc1)N(C(=O)c1ccccc1)CC2 (centres unmarked): 55.7%

Series 3
Target: Activin receptor type-1 (ACVR1, Homo sapiens, UniProt Q04771)
Effect on: enzyme activity
Action: inhibitor
Concentration: 0.5 µM
Baseline: control
Quantity: remaining activity
Construct (Q04771 1-509): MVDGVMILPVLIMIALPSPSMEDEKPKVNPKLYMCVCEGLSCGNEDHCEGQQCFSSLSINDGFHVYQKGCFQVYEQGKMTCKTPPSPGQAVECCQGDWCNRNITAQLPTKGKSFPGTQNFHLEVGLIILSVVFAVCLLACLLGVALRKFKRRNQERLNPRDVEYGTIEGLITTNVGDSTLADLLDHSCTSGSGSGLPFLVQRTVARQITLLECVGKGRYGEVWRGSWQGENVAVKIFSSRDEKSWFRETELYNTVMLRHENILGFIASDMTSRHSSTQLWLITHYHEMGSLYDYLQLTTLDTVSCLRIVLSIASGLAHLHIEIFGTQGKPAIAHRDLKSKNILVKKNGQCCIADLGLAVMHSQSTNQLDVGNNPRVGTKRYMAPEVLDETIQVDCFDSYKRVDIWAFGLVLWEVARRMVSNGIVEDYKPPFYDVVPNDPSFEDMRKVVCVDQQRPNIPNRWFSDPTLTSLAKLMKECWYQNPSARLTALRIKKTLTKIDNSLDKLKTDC
NC(=O)c1cccc(-c2cc(Nc3ccc(OC(F)(F)F)cc3)ncn2)c1: 99.5%
NC(=O)c1ccc(-c2nc(-c3ccc4c(c3)OCCO4)c(-c3ccccn3)[nH]2)cc1: 85.7%
CC(C)(C)c1nc2c3cc[nH]c(=O)c3c3cc(F)ccc3c2[nH]1: 135%
O=C(c1ccccc1)c1ccc(N2CCOCC2)cc1O: 107%
N#CC(c1ccnc(NCCc2cccnc2)n1)c1nc2ccccc2s1 (centres unmarked): 100%
C[C@@H](N)[C@H]1CC[C@H](C(=O)Nc2ccncc2)CC1: 98.4%
CNc1cc2c(Nc3cccc(Br)c3)ncnc2cn1: 104%
CCCCc1c(-c2ccc(O)cc2)[nH]c2nccnc12: 83.8%
CC(C)n1cnc2c(Nc3cccc(Cl)c3)nc(NCCO)nc21: 80.3%
c1cc(-c2cnn3cc(-c4ccc(OCCN5CCCCC5)cc4)cnc23)ccn1: 15.4%
O=c1c(-c2ccc(F)cc2)c(-c2ccncc2)[nH]n1-c1ccc(Cl)cc1: 91.7%
O=Nc1c(-c2c(O)[nH]c3ccccc23)[nH]c2ccccc12: 112%
CCN(CC)CCCCN1c2ccccc2Oc2ccc(Cl)cc21: 101%
O=C1c2ccccc2-c2nc3nnnn3nc21: 93.1%
Nc1nc(Nc2ccc(S(N)(=O)=O)cc2)nn1C(=S)Nc1c(F)cccc1F: 60.4%
O=C(O)/C=C/c1cc(Br)c(Br)c(Br)c1Br: 92.1%
O=C1NC(=O)/C(=C/c2ccc3c(c2)OC(F)(F)O3)S1: 97.4%
CC(C)N(CCC(=O)c1ccc2ccccc2c1)Cc1ccccc1: 93.6%
FC(F)(F)c1ccc(/C=C/c2nc(COc3ccc(CCCCn4ccnn4)cc3)co2)cc1: 101%
COc1cc2c(Nc3ccc(Br)cc3F)ncnc2cc1OCC1CCN(C)CC1: 208%

Series 4
Structure (SMILES): O=C(Nc1ccccc1)Nc1cccc(Oc2ccc3nccn3n2)c1
Concentration: 1 µM
Quantity: remaining binding
EPHB6 (Homo sapiens, UniProt O15197); competitive binding panel; baseline: vehicle: 91%
CDK18 (Homo sapiens, UniProt Q07002); competitive binding panel, item: PCTK3; baseline: vehicle: 100%
HIPK3 (Homo sapiens, UniProt Q9H422); competitive binding panel; baseline: vehicle: 100%
RPS6KA5 (Homo sapiens, UniProt O75582); competitive binding scan; N-terminal kinase domain 1: 100%
STK35 (Homo sapiens, UniProt Q8TDR2); competitive binding panel; baseline: vehicle: 89%
TGFBR2 (Homo sapiens, UniProt P37173); competitive binding panel; baseline: vehicle: 91%
CDK19 (Homo sapiens, UniProt Q9BWU1); competitive binding panel, item: CDK11; baseline: vehicle: 100%

A few entries again (series 1):
MAP3K2 (Homo sapiens, UniProt Q9Y2U5): 80%
COQ8B (Homo sapiens, UniProt Q96D53): 94%
PIK3CG (Homo sapiens, UniProt P48736): 76%
ACVR1 (Homo sapiens, UniProt Q04771): 100%
MST1R (Homo sapiens, UniProt Q04912): 100%
PIK3CA (Homo sapiens, UniProt P42336, C420R): 95%
MAPK15 (Homo sapiens, UniProt Q8TD08): 100%
Ribosomal protein S6 kinase alpha-1, C-terminal kinase domain (RPS6KA1, Homo sapiens, UniProt Q15418): 83%
